Measurements gathered from unrelated publications.
Lines come from different studies, so protocols differ. Several values in a cell are separate wells, animals, samples, runs or records. Numbers after ± are the reported error.
DNMT3A PWWP domain: DNA (cytosine-5)-methyltransferase 3A, PWWP domain (DNMT3A, Homo sapiens, UniProt Q9Y6K1)
TOP2A: DNA topoisomerase 2-alpha (TOP2A, Homo sapiens, UniProt P11388)
Cereblon/Ikaros: Cereblon/Ikaros (Homo sapiens, UniProt Q13422+Q96SW2)
Pteridine reductase 1: Pteridine reductase 1 (Leishmania major, UniProt Q01782)
BEST2: Bestrophin-2a (BEST2, Homo sapiens, UniProt Q8NFU1)
PKN1: Serine/threonine-protein kinase N1 (PKN1, Homo sapiens, UniProt Q16512)
T1: G-quadruplex RNA (Homo sapiens); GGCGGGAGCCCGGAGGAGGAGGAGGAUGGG
T2: G-quadruplex RNA (Caenorhabditis elegans); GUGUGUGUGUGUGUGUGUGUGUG

SMILES | target | assay | system | conditions | how to read | quantity | value
CC1(C)CC2(C)OC(=O)NC2(C)c2ccccc21 (stereo not shown) | DNMT3A PWWP domain | binding, affinity selection mass spectrometry |  |  | relative to: other proteins in batch | log fold enrichment | -0.161
NCCCCC(=O)O | SLC6A6 (Homo sapiens, UniProt P31641, Y138A) | binding, microscale thermophoresis |  | 977 nM, room temperature, with: 50 nM labelled protein | higher = more binding | normalised MST signal | -0.017
CC[C@@H]1[C@H](F)C(=O)N[C@@H]1COc1nccc2cc(C(N)=O)c(OC)cc12 | PHKG2 (Homo sapiens, UniProt P15735) | ATP-site probe binding, ActivX profiling | THP-1 cell lysate | 0.01 mM, Lys1 site |  | inhibition | 15.9%
CO[C@@H]1[C@@H]2OP(=O)(O)OC[C@H]2O[C@H]1n1c(Sc2ccc(Cl)cc2)nc2c(N)ncnc21 | anti-cGMP antibody | antibody binding, competitive cGMP EIA |  | concentration not given, acetylated samples | relative to: EC50 cGMP over EC50 cpd, higher = stronger binding | relative binding affinity | 0.0002
N.N.[Cl-].[Cl-].[Pt+2] | T1, G-quadruplex RNA (Homo sapiens) | SPR |  | 25 °C, LiCl 100 mM, disrupted rG4, covalent |  | Kd | 46 µM
O=c1nc(SCc2cc(F)cc(C(F)(F)F)c2)nc(SCc2nc3ccccc3[nH]2)[nH]1 | TOP2A | decatenation |  | 15.6 µM, replicate 2 |  | decatenated DNA | 87.1%
Cc1cc(NC2=CC(=O)N(C3CCC(=O)NC3=O)C2=O)cc(C(C)(C)NCCc2ccc(C(F)(F)F)c(Cl)c2)c1 (stereo not shown) | Cereblon/Ikaros | protein degradation, degrader, HiBiT luminescence | Jurkat |  |  | Dmax | 41%
C[S+](CC[C@H](N)C(=O)[O-])C[C@H]1O[C@@H](n2cnc3c(N)ncnc32)[C@H](O)[C@@H]1O (stereo partly shown) | KMT2C (Homo sapiens, UniProt Q8NEZ4) | substrate, enzyme-coupled methylation |  | with: H3 peptide 1600 µM |  | apparent Km | 20.1 ± 1.2 µM
O=c1nc(SCc2cc(F)cc(C(F)(F)F)c2)nc(SCc2ccc3nc(Cl)ccc3c2)[nH]1 | TOP2A | DNA cleavage |  | 125 µM |  | mean linear DNA | 3.24%
Cc1ccc(C(=O)Nc2ccc3ccccc3c2)o1 | ATP-sensitive inward rectifier potassium channel 1 (Homo sapiens, UniProt P48048) | ion current, whole-cell patch-clamp |  | 10 µM, hKir1.1 |  | inhibition | 3.38%
COc1ccc(C(=O)/C=C/c2cccc(-c3cccc(-c4ccc(CNC(CO)CO)c(OC)n4)c3C)c2)cc1 | CD274 (Homo sapiens, UniProt Q9NZQ7) | degrader, western blot | HL-60 | 1 µM |  | degradation | < 5%
COCCC(=O)N1CCC(Oc2ccccc2)C1 (stereo not shown) | DNMT3A PWWP domain | binding, affinity selection mass spectrometry |  |  | relative to: other proteins in batch | fold enrichment | 0.719
Nc1nc(N)c2nc(CNCc3ccc(Oc4ccccc4)cc3)cnc2n1 | Pteridine reductase 1 |  |  | hDHFR weight 10 | relative to: LmPTR1, LmDHFR over hDHFR, 1.0 selective, 0.0 non-selective | partition index | 0.91
OC[C@H]1OC(O)[C@H](O)[C@@H](O)[C@@H]1O (stereo partly shown) | Transcription factor MafB (MAFB, Homo sapiens, UniProt Q9Y5Q3) | EMSA |  | concentration not given, with: DNA |  | DNA binding | no effect
O=c1nc(SCc2cc(F)cc(C(F)(F)F)c2)nc(SCc2ccc3nc(OCCN4CCOCC4)ccc3c2)[nH]1 | TOP2A | DNA cleavage |  | 31.25 µM, replicate 1 |  | linear DNA | 0%
CCc1oc2ccccc2c1C(=O)c1cc(Br)c(O)c(Br)c1 | SLC22A12 (Homo sapiens, UniProt Q96S37) | inhibitor | HEK-293T | 0.001 µM, 10 min, 37 °C, with: [14C]urate 10 µM |  | normalized urate uptake | 0.851 and 0.814 and 0.926
COc1cccc2c(Nc3ccc4[nH]c(C(=O)N/N=C/c5ccc(SC)cc5)cc4c3)cc(C)nc12 | RARA (Homo sapiens, UniProt P10276) | reporter gene, Gal4 hybrid reporter |  | 3 µM | relative to: vehicle | activation | 0.78 fold
O=C(O)c1ccc([N+](=O)[O-])cc1 | BEST2 | whole-cell patch clamp | HEK293 transiently expressing channel | concentration not given, membrane potential -100 mV |  | current density | -309 pA/pF and -379 pA/pF and -257 pA/pF and -116 pA/pF and -321 pA/pF
Cc1nc(CSc2nc(SCc3cc(F)cc(C(F)(F)F)c3)nc(=O)[nH]2)cs1 | TOP2A | decatenation |  | 15.6 µM |  | mean decatenated DNA | 93.9%
O=C1CCC(N2C(=O)C=C(Nc3cccc(C(NCCc4ccc(C(F)(F)F)c(Cl)c4)c4ccccc4)c3)C2=O)C(=O)N1 (stereo not shown) | Cereblon/Ikaros | protein degradation, degrader, HiBiT luminescence | Jurkat |  |  | Dmax | 70%
CCc1c(C)c2cc3nc(cc4nc(cc5c(CC)c(C)c(cc1[nH]2)n5C)C(C)=C4CCC(=O)O)C(CCC(=O)O)=C3C | T2, G-quadruplex RNA (Caenorhabditis elegans) | UV-vis titration |  |  |  | Kd | 1 µM
COc1cc(C(=O)NS(=O)(=O)c2ccccc2C)ccc1Cc1cn(C)c2ccc(NC(=O)OC3CCCC3)cc12 | LRRC8A/LRRC8C (Homo sapiens, UniProt Q8IWT6+Q8TDW0, M48D/T48D) | whole-cell patch clamp | HCT116 LRRC8-/- transfected | at -100 mV |  | Hill coefficient | 1.53
Cc1cc(Nc2cc(N3CCN(C)CC3)nc(Sc3ccc(NC(=O)C4CC4)cc3)n2)[nH]n1 | RET (Homo sapiens, UniProt P07949, V804L) | kinase activity |  | 0.03 µM, V804L | relative to: control | remaining activity | 23%

SMILES | target | assay | system | conditions | how to read | quantity | value
O=c1cc(-c2ccc(OS(=O)(=O)[O-])cc2)oc2cc(OS(=O)(=O)[O-])cc(OCc3cccc(COc4cc(OS(=O)(=O)[O-])cc5oc(-c6ccc(OS(=O)(=O)[O-])cc6)cc(=O)c45)n3)c12.[Na+].[Na+].[Na+].[Na+] | Neutrophil elastase (ELANE, Homo sapiens, UniProt P08246) |  |  | 500 nM, with: chromogenic substrate |  | Vmax | 30.3 ± 0.9 mAU/min
CN(C)C(=O)C(CCN1CCC(O)(c2ccc(Cl)cc2)CC1)(c1ccccc1)c1ccccc1 | Calcium-activated potassium channel subunit alpha-1, with LRRC26 γ1 subunit (KCNMA1, Homo sapiens, UniProt Q12791) | BK channel conductance, inside-out patch clamp |  | BKα/γ1, Vm -20 mV, nominally Ca2+-free |  | Hill coefficient | 1.33 ± 0.75
NC1(C(=O)N[C@@H](CCO)c2ccc(Cl)cc2)CCN(c2ncnc3[nH]ccc23)CC1 | PKN1 | inhibitor |  |  |  | Hill slope | -0.776
C#CCN(Cc1cnc2nc(N)nc(N)c2n1)c1ccc(C(=O)N2CCC(C(=O)OC)CC2)cc1 | Pteridine reductase 1 |  |  | hDHFR weight 10 | relative to: LmPTR1, LmDHFR over hDHFR, 1.0 selective, 0.0 non-selective | partition index | 0.97
Cn1ncc(Cl)c1-c1cc(C(=O)N[C@H](CN)Cc2ccc(F)c(F)c2)oc1Cl | PKN1 | inhibitor |  |  |  | Hill slope | -0.96
CC1(C)O[C@@H]2[C@@H](CO[C@@]3(COS(N)(=O)=O)OC(C)(C)O[C@@H]23)O1 | CA4 (Homo sapiens, UniProt P22748) | ITC |  | concentration not given, 25 °C |  | intrinsic binding ΔG | -13 kcal/mol
C=CC(=O)N1CCC(COCC(=O)N2CCN(c3nc(-c4cnc(N)nc4C(F)F)nc(N4CCOC[C@@H]4C)n3)CC2)CC1 | LIM domain kinase 2 (LIMK2, Homo sapiens, UniProt P53671) | KINOMEscan |  | 1 µM |  | remaining binding | 100%
CC(C)c1ccc(CSc2nc(SCc3ccc4sccc4c3)[nH]c(=O)n2)cc1 | TOP2A | decatenation |  | 15.6 µM, replicate 2 |  | decatenated DNA | 0.81%
[O-][S+]1CCCCS1 (stereo not shown) | SOD1 (Homo sapiens, UniProt P00441, G94A) | refers to: SOD1 dimer | SOD1 G93A transgenic mice, blood | iv, 10 mg/kg once daily |  | target engagement | 65.5%
Nc1ccc(C(=O)O)cc1 | BEST2 | whole-cell patch clamp | HEK293 transiently expressing channel | concentration not given, membrane potential -20 mV |  | current density | -65.5 pA/pF and -47.1 pA/pF and -33.6 pA/pF and -16.8 pA/pF and -74.5 pA/pF and -59.1 pA/pF
Cc1nc(CSc2nc(SCc3ccc(C(F)(F)F)cc3)nc(=O)[nH]2)cs1 | TOP2A | decatenation |  | 31.25 µM, replicate 2 |  | decatenated DNA | 65.1%
Nc1ncnc2c1ncn2[C@@H]1O[C@H](CO[P@](=O)(O)O[P@](=O)(O)O[P@@](=O)(O)S)[C@@H](O)[C@H]1O | GUK1 (Homo sapiens, UniProt Q16774) | binding, isothermal titration calorimetry |  | molar ratio 2.17, fitted curve |  | ΔH | -0.429 kcal/mol
O=c1nc(SCc2cc(F)cc(C(F)(F)F)c2)nc(SCc2cccc(C(F)(F)F)c2)[nH]1 | TOP2A | decatenation |  | 31.25 µM, replicate 1 |  | decatenated DNA | 27.6%
COc1cc(N2CCC(N3CCN(C)CC3)CC2)ccc1Nc1ncc(Cl)c(Nc2ccccc2P(C)(C)=O)n1 | GID4/ALK (Homo sapiens, UniProt Q8IVV7+Q9UM73) | ternary complex formation | HEK293T | 100 nM, 6 h | relative to: normalised ratio | NanoBRET ratio | 1.04 and 1 and 1.01
O=c1c(O)c(-c2ccc(O)c(O)c2)oc2cc(O)cc(O)c12 | FOXO3 (Homo sapiens, UniProt O43524) | binding, fluorescence quenching | PBS | 298 K |  | Ka | 133000 M⁻¹
O=C(COP(=O)(O)O)[C@@H](O)[C@H](O)[C@H](O)COP(=O)(O)O | Coatomer subunit alpha (Homo sapiens, UniProt P53621) | thermal proteome profiling, refers to: COPA | HepG2 cell lysate | concentration not given, 57 over 37 °C, mean | relative to: compound over control | thermal stability ratio | 0.545
O=C(O)C1=CCNCC1 | BEST2 | whole-cell patch clamp | HEK293 transiently expressing channel | concentration not given, membrane potential -40 mV |  | current density | -69 pA/pF and -92.2 pA/pF and -98.1 pA/pF and -179 pA/pF and -76.1 pA/pF
O=c1ccc2nc3ccc(O[C@@H]4O[C@H](CO)[C@@H](O)[C@H](O)[C@H]4O)cc3oc-2c1 | GBA1 (Homo sapiens, UniProt P04062, R534H) | substrate |  | room temperature |  | Km | 31 µM
c1coc(-c2n[nH]cc2-c2ccnc3ccccc23)c1 | KIC1 (Candida albicans) | kinase binding, MIB/MS competition | Candida albicans lysate | 1 µM | relative to: DMSO | log2 fold change | -0.04
CC(C)=CCC/C(C)=C/CC/C(C)=C/COP(=O)(O)OP(=O)(O)O | Protein farnesyltransferase (Rattus norvegicus, UniProt Q02293+Q04631) | peptide prenylation, substrate |  | 2.0 µM, pH 7.5, 25 °C, Protein farnesyltransferase 20 nM, with: C10-Alk or C15-Alk isoprenoid 0.25 to 16 µM |  | kcat | 0.21 ± 0.01 s⁻¹
CN1CCN(c2cc(-c3ccncc3)c(-c3ccc4ccccc4c3)nn2)CC1 | Secretin receptor (SCTR, Homo sapiens, UniProt P47872) | agonist, FLIPR calcium |  | 12.5 µM |  | activation | 3.8%
Nc1ncnc2c1ncn2[C@@H]1O[C@H](COP(=O)(O)CP(=O)(O)OP(=O)(O)O)[C@@H](O)[C@H]1O | P2X purinoceptor 1 (P2RX1, Homo sapiens, UniProt P51575, R292A) | calcium influx |  | 100 µM | relative to: ionomycin response | calcium influx | 100%
CCS(=O)(=O)N1CC(CC#N)(n2cc(-c3ncnc4[nH]ccc34)cn2)C1 | ORM1 (Homo sapiens, UniProt P02763) | FRET |  | 1.2 µM |  | energy transfer efficiency | 27.2%

A few entries again:
SMILES | target | assay | system | conditions | how to read | quantity | value
CCc1oc2ccccc2c1C(=O)c1cc(Br)c(O)c(Br)c1 | SLC22A12 (Homo sapiens, UniProt Q96S37) | inhibitor | HEK-293T | 0.001 µM, 10 min, 37 °C, with: [14C]urate 10 µM |  | normalized urate uptake | 0.851 and 0.814 and 0.926
COc1cccc2c(Nc3ccc4[nH]c(C(=O)N/N=C/c5ccc(SC)cc5)cc4c3)cc(C)nc12 | RARA (Homo sapiens, UniProt P10276) | reporter gene, Gal4 hybrid reporter |  | 3 µM | relative to: vehicle | activation | 0.78 fold
O=C(O)c1ccc([N+](=O)[O-])cc1 | BEST2 | whole-cell patch clamp | HEK293 transiently expressing channel | concentration not given, membrane potential -100 mV |  | current density | -309 pA/pF and -379 pA/pF and -257 pA/pF and -116 pA/pF and -321 pA/pF
